Measurements from different studies.
Each numbered part is a random draw from the data of one study; scales do not carry over between parts. Substitutions count along the parent as printed.

Sample 1
Target: Histone acetyltransferase KAT6A, winged helix 1, GST fusion (KAT6A, Homo sapiens, UniProt Q92794, residues 1-85)
Method: protein binding microarray
Form: double-stranded DNA, one strand shown
Medium: in vitro
Tested at: not given
Setting: 8-mer, flanks averaged, mean of 2 arrays, mostly near background
Relative to: not given
Reading: higher = stronger binding
Quantity: E-score
Residues (chain): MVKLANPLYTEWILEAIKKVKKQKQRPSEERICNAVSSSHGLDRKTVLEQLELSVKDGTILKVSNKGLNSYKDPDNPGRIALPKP
CAGTATAA: -0.0356
ATCCCTGA: -0.194
AGCTGCTG: -0.197
CGCATCAG: 0.107
ATGCCATC: -0.117
CTTGGAGC: -0.0906
AAGGGTCC: 0.0961
CAGCGCGA: 0.326
CAGTGGTC: -0.127
ATCGCTTC: 0.0506
AACCGGTC: 0.0666
ATACGAGG: -0.0988
CAGGATTA: -0.0455
ACTGGGTA: -0.0601
ACTATTCC: 0.146
GCGTCGCA: 0.367
ACTCACCA: -0.325
ATACTAAG: -0.103
GGGATATA: -0.039
CCCAAGTA: -0.11
ACCACAAA: -0.194
CAGGTCAC: -0.116
TCACGGGA: 0.237
ACTCTACT: -0.193
CTGCTCGC: 0.0443

Sample 2
Target: Hepatocyte nuclear factor 3-alpha (Foxa1, Mus musculus, UniProt P35582, residues 1-468, full length assumed)
Method: EMSA with sequencing
Form: double-stranded DNA, one strand shown
Medium: in vitro
Tested at: 10 and 20 nM
Setting: whole designed probe, mean of two concentrations, ends assumed
Relative to: negative control set to 0
Reading: higher = stronger binding
Quantity: normalised bound fraction
All sequences stand within: GTGAGCGGTGCCCATTGATGGGGAAC … TTTCACTGGGATCGTGGGGAC
Residues (chain): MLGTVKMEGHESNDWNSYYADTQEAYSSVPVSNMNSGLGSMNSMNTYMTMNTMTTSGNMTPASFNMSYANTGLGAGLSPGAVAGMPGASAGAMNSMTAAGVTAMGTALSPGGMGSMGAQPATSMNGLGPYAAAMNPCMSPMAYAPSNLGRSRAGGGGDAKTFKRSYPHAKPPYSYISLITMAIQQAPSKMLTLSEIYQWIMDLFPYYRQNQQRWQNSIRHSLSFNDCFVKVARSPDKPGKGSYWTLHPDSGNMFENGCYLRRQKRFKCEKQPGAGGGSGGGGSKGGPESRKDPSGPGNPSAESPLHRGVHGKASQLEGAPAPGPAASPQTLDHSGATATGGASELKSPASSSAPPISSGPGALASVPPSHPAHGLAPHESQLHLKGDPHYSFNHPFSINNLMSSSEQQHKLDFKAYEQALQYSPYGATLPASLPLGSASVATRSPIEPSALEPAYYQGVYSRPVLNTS
GAAGGAAATAATGGAGCCAACCATGCATATAACCTCAGGGAGAACATTCTAGGTAGAGGGAACAGCAAGTGCAAAGGCCCTGAAGTGGGGGTTTGTTTACCTTCTGCACACAGGCCAGTAGTTGCACAATCAATTGGAATGGATGGGAAATGTAAAAGAGAGAAGTTGAAAAGGCCAGGTGCAGTGGCTCATG: 0.426 ratio
TTTTTTCTTTTAGTTTTCATTTTTTTTCTGAAAACAGAAACACACAGTAACATGTAATATAAAATTGCTTTTATTATAAATAACCCCTTACAATGTAAACAAATATATTGATATTATAAAACCACTGGTCCTCATTTGTTTTAATATGGCAAAATTAAATAACCTTTCACATTAAAAATATACTCTTTAGTTT: 0.456 ratio
ACTTCCACAAGGGAAGATAATGATAAAACATTAATAAAAATATCTATGAAGATGAGGACACAATAGAAAGCACAAGTTACATTGGGAAAAAGAGTCATCTGATACAACAAGATAATTCACATCCCAATAATTAAGGGTAATAAAGCAATATGAAAGAGGTAAGTATGCTTAAAATGTTTATTGACCAAAAGAA: 0.228 ratio
AAGAGGGAGTGAAGGTCTCTGAAAATGTAGGAGTCCCTTTAGTAGATGGGGAGAAATGGGTTAAAGATTTTTAAAAATTGCACAGACAGTAGTAGATTGCTCTTTGGTTACAGGTGAATTATCTCTATCCTAGTTAGGAGTGGAGGACTGAAGTATGTCTCAATGCACAAACTAAGGCTGTGCAGGCTTGGAA: -0.0971 ratio
ATCTTCCCCCTCTTCCTTGCCCCACCAGCTCACCTTCCCGGGTATATTGGAGATAGGAAATTAATATAAGCCGGCATTCGTTAACCCTCTTCACGCGCATACTGCTGTTTGCTCTGGATCTAACATGGTCCTTTGGCGACGCCAGGCTCCGGGAGAGCAAAGCACCGTGTCAGGGCCATGATCCGGGGTGGCC: 0.124 ratio
ATCTTCCCCCTCTTCCTTGCCCCACCAGCTCACCTTCCCGGGTTATTTGCAGATAGGAAAATAAATAAAGCCGGATGAATCATGCCCTCTTCACGCGCATACTGCTGTTTGCTCTGGATCTAACATGGTCCTTTGGCGACGCCAGGCTCCGGGAGAGCAAAGCACCGTGTCAGGGCCATGATCCGGGGTGGCC: 0.361 ratio
GCCTAGTGCACATCCCAGCCCTGCCTCCTGCCCCGCCTGCACGCCATGAGTGCTGAAGTCATGCCTGGCAGGGGCTGCTGGCCCAGGCCCAGAGTAATCTCACTGCGCTGAGCTCGCTGGTGTGCTGCTGGATGCTGATGAGCTTGAGGAGTGTGGGAAGTGAGCATGGGGCTGAGTAGAGATGCGGCAGGCC: -0.0909 ratio
CAGGTTCTCCAGACTAACTAGACATTGGCAGGGTTGACTGATATTCTGCCAGCAAATCCCTCTTCTGCTCTAGTCAGCCAGGGCTGGTGACTGTGTAATCTAGACCCCTCTCACTCCTCCCACAGCTGTGCTGCAGATGACACACACACTTCTCTTAACAATTTTTATTGAAGAAAAAATAGGCTGCTTTGCA: -0.0502 ratio

Sample 3
Target: CCNA1, cyclin fold, Cln2 fusion (human)
Method: yeast growth competition, sequencing
Medium: yeast
Setting: weak parent motif
Relative to: not given
Reading: higher = stronger binding
Quantity: normalised enrichment score
Starting sequence: SAMHD1 docking peptide (human); ASKSRVQLFKDDP
ASKSRVQLFKMDP [D11M]: 0.111
ASGSRVQLFKDDP [K3G]: 0.126
ASKSRVQLFKGDP [D11G]: 0.243
ASKSRVQLLKDDP [F9L]: 0.646
ASKSRVQLFPDDP [K10P]: 0.352
ASKWRVQLFKDDP [S4W]: 0.0291
ASKSRVQMFKDDP [L8M]: 0.173
ASKSRVQLMKDDP [F9M]: 0.595
ASKSHVQLFKDDP [R5H]: 0.119
ASKSRVQLGKDDP [F9G]: -0.148
ASKSRVQLFKDLP [D12L]: 0.278
ASKSLVQLFKDDP [R5L]: -0.084
ASKERVQLFKDDP [S4E]: -0.0288
ASKSRVQLFKDIP [D12I]: 0.443
ASKSRVQLFKADP [D11A]: -0.0976
ASKSRVQLFDDDP [K10D]: 0.0865
ASKSRVQLFCDDP [K10C]: 0.247
ASKSSVQLFKDDP [R5S]: -0.00974
ASKSRVSLFKDDP [Q7S]: 0.0656
ASKSRVQLFKDCP [D12C]: 0.185
ASKSRVCLFKDDP [Q7C]: 0.176
ASKSRVQLFEDDP [K10E]: 0.433

Sample 4
Target: Ras GTPase-activating protein-binding protein 1, full length (G3BP1, Homo sapiens, UniProt Q13283)
Chain of UniProt Q13283 (whole entry, looked up): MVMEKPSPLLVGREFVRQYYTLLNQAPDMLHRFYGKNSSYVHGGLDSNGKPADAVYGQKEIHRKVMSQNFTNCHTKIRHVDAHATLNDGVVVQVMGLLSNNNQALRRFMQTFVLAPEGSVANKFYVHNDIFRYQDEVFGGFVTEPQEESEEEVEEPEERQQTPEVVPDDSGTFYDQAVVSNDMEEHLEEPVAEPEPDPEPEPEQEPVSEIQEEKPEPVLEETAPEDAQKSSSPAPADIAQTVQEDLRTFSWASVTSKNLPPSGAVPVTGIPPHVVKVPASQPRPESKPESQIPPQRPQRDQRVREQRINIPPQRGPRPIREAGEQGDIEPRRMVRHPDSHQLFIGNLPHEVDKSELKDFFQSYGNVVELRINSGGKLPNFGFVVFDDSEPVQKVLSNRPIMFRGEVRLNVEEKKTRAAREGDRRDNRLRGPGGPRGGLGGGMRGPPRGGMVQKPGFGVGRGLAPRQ
Method: RNA Bind-n-Seq
Form: RNA
Medium: in vitro
Tested at: 200 nM
Setting: whole 134-nt RNA, ends assumed
Together with: 150 mM LiCl
Relative to: input library
Reading: higher = stronger binding
Quantity: log2 enrichment
Each molecule: 7-deaza-guanosine replaces G
All sequences stand within: GGGAGUUCUACAGUCCGACGAUC … UGGAAUUCUCGGGUGUCAAGG
CAACGUUGAAAUGGAUUGGGUGUUGAAGCAUACUGGUCCAAAUAGUCCUGACACGGCCAAUGAUGGCUUUGUACGGCUUAGAGGACUUCC: -1.96
AGUCCUGUGCUACACAUCGUAUGUACCGAAUCGGGGAAAAAGGGAAAAAGGAAAAAGGAAAGUAUUAUGUUACGCCGUUCGGAUCUGCAC: -0.314
CACAGACAACACGCACCCACACAGACACAGAGGGAAGGGGUUGGGAUGGGGACAGGGUGCACAGCAGGGCGGGGUAGGACGCCAGCCCCU: -0.395
CCUGUGCUACACAUCGUAUGUACCGAAUCGGGGAGGGGUUUUUUUGGGGUUUUUUUGGGGAAAGUAUUAUGUUACGCCGUUCGGAUCUGC: 1.58
CUGUGCUACACAUCGUAUGUACCGAAUCGGGGUUUUUUUGGGUUUUUUUGGGUUUUUUUGGGAAAGUAUUAUGUUACGCCGUUCGGAUCU: 1.3
CAAGUCCUGUGCUACACAUCGUAUGUACCGAAUCGGGGUGGGGAGGGGUUUGGGGAAAGUAUUAUGUUACGCCGUUCGGAUCUGCACUUC: -0.397
CACAGACAAAACGCACCCACACAGACACAGAGGGAAGGGGUUGGGAUGGGGACAGGGUGCACAGCAGGGCGGGGUAGGACCCCAGCCCCU: 0.375
GUCCUGUGCUACACAUCGUAUGUACCGAAUCGGGAAAAAGGGUUUGGGAAAAAAAGGGAAAGUAUUAUGUUACGCCGUUCGGAUCUGCAC: -1.9
UGGGAGGUGGAUUUUGUUUAUUUUUUUAGCUCAUUUCCAGGGGUGGGAAUUUUUUUUUAAUAUGUGUCAUGAAUAACGUUGUUUUUGAAA: -0.0575
UCCUCAAGUCCUGUGCUACACAUCGUAUGUACCGAAUCGGUGGAAAGGUGGAAAGUAUUAUGUUACGCCGUUCGGAUCUGCACUUCCAGC: 0.272
UCAAGUCCUGUGCUACACAUCGUAUGUACCGAAUCGGGUUUGGGUUUGGGAGGGAAAGUAUUAUGUUACGCCGUUCGGAUCUGCACUUCC: -0.118

Sample 5
Target: Sal-like protein 4, full length isoform A (SALL4, Homo sapiens, UniProt Q9UJQ4, residues 1-1053)
Chain of UniProt Q9UJQ4 (whole entry, looked up): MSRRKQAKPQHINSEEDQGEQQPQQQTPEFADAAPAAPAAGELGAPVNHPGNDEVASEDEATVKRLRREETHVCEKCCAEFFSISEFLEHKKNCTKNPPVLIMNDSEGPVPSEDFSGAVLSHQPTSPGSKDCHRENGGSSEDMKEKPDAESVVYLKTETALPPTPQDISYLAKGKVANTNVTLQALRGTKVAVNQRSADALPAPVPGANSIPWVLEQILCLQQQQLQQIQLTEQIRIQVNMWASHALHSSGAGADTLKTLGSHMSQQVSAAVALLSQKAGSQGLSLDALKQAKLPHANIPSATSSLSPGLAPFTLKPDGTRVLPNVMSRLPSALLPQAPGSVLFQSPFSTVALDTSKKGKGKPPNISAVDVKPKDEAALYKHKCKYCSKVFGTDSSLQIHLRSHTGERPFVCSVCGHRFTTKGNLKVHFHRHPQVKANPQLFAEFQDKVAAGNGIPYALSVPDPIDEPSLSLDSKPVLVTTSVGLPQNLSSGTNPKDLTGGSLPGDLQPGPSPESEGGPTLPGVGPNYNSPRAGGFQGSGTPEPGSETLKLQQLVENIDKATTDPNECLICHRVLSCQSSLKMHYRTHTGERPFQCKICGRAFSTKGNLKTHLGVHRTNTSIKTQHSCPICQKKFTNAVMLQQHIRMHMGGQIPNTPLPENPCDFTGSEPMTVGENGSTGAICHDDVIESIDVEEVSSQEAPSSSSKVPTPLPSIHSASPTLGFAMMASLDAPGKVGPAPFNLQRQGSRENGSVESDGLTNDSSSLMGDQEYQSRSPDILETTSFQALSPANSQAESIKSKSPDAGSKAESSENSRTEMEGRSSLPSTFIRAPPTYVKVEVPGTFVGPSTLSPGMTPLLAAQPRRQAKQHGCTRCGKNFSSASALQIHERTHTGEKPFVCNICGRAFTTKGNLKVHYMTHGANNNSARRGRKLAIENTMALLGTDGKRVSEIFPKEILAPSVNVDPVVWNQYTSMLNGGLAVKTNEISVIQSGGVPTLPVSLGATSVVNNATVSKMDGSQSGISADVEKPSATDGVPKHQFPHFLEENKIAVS
Method: universal PBM
Form: double-stranded DNA, one strand shown
Medium: in vitro
Tested at: 600 nM
Setting: 8-mer, flanks averaged, mean of replicates
Reading: higher = stronger binding
Quantity: E-score
AGTCTTTC: -0.075
CATTCCAC: 0.0573
ACAGCGAA: 0.0051
TCCAGCGA: -0.114
CGATCTTC: -0.142
GGAGGCGA: -0.249
GTACCTCA: 0.0381
CGGGTAAA: -0.00673
CCGCTGGA: -0.212
ACCGATGC: -0.153
ACGGAGTC: -0.0899
ATCAACCC: 0.04
GTGTCAAC: -0.106
ACGTTCAA: 0.106
GCAGGGAA: -0.15
ATTCGAAC: 0.122
CCTTCCAA: -0.0217
CACGCAGA: -0.0806
GCAACGTA: 0.0629
CCACTACG: -0.204
TAGTTTAA: 0.222
CAACGAGG: -0.0438
ACCACACC: -0.208
CCCATCCG: -0.197
GCGATGCC: -0.299
